Assay results of several laboratories.
Each line is one published result; not all experiments were run side by side. Values joined by “and” are separate records of one study, mostly repeats; a detail may differ. Numbers after ± are the reported error.

| Compound | test | system | conditions | tissue uptake |
| --- | --- | --- | --- | --- |
| CC(C)C[C@H](NC(=O)[C@@H](CCCCNC(=O)[C@@H](Cc1ccccc1)NC(=O)CCCCCCCNC(=O)CN1CCN(CC(=O)O)CCN(CC(=O)O)CCN(CC(=O)O)CC1)NC(=O)[C@H](Cc1ccc(O)cc1)NC(=O)[C@H](CO)NC(=O)[C@H](Cc1c[nH]c2ccccc12)NC(=O)[C@H](Cc1c[nH]cn1)NC(=O)[C@@H]1CCC(=O)N1)C(=O)N[C@@H](CCCNC(=N)N)C(=O)N1CCC[C@H]1C(=O)NCC(N)=O [indium-111 labelled] | – | male athymic nude mice, DU-145 prostate cancer xenograft, kidney | intravenous, 0.037 MBq, 1 h | 7.62 ± 0.83 %ID/g |
| CN(O)C(=O)CCC(=O)NCCCN(CCCCN(CCCNC(=O)CCC(=O)N(C)O)C(=O)CCC(=O)N(C)O)C(=O)CCC(=O)N(C)O.[89Zr] | gamma counting | healthy Balb/c mice, plasma | intravenous, 4 h, 89Zr-labelled complex | 0.01 %ID/g |
| Cc1cc(C)n(CCN(CCN)CCCCCCNC(=O)[C@@H](N)Cc2c[nH]cn2)n1.[99Tc+].[C-]#[O+].[C-]#[O+].[C-]#[O+] | – | BALB/c nude mice, MCF7 xenograft, spleen | intravenous, 4 h | 0.28 ± 0.03 %IA/g |
| C[N+](C)(CCOCCOCCOCCNC(=S)Nc1ccc(C[C@H]2CN(CC(=O)[O-])CCN(CC(=O)[O-])CCN2CC(=O)[O-])cc1)C[c-]1cccc1.[64Cu+2].[Fe+2].c1cc[cH-]c1 | refers to: large intestine | nude mice, BxPC-3 tumour | 8 h post injection, pretargeting, 72 h lag | 5.2 ± 0.8 %ID/g |
| N#C[C@@H]1CCCN1C(=O)CNC(=O)c1ccnc2ccc(OCCCN3CCN(C(=O)CCc4ccc(O)c(CN5CCN6CC(=O)[O][Al-]([18F])([O]C(=O)C5)[O]c5ccc(CCC(=O)N7CCN(CCCOc8ccc9nccc(C(=O)NCC(=O)N%10CCC[C@H]%10C#N)c9c8)CC7)cc5C6)c4)CC3)cc12 (stereo partly drawn) | – | BALB/c nude mice, U-87 MG xenograft, lung | 1 h, blocking, together with: DOTA-FAPI-04 40 nmol/mouse co-injected | 6.49 ± 1.06 %ID/g |
| COc1ccc(Nc2nc(Nc3ccc(OCCOCC[18F])cc3)ncc2Br)cc1 | – | ICR mice, S180 tumour-bearing, lung | intravenous, 370 kBq, 120 min | 1.94 ± 0.32 %ID/g |
| C[N+](C)(CCOCCOCCOCCOCCOCCOCCOCCNC(=S)Nc1ccc(CC2CN(CC(=O)[O-])CCN(CC(=O)[O-])CCN2CC(=O)[O-])cc1)C[c-]1cccc1.[64Cu+2].[Fe+2].c1cc[cH-]c1 (stereo not drawn) | refers to: liver | nude mice, BxPC-3 tumour | 8 h, pretargeting, 72 h lag | 0.2 ± 0.1 %ID/g |
| COc1ccc(Nc2nc(Nc3ccc(OCCOCCOCC[18F])cc3)ncc2Br)cc1 | – | ICR mice, S180 tumour, stomach | intravenous, 370 kBq, 60 min | 1.56 ± 0.16 %ID |
| CCCC[C@H](NC(=O)CCCCCCCNC(=O)CN1CCN(CC(=O)O)CCN(CC(=O)O)CC1)C(=O)N[C@H]1CC(=O)NCCCC[C@@H](C(N)=O)NC(=O)[C@H](Cc2c[nH]c3ccccc23)NC(=O)[C@H](CCCNC(=N)N)NC(=O)[C@@H](Cc2ccccc2)NC(=O)[C@H](Cc2c[nH]cn2)NC1=O [fluorine-18 labelled] | – | C57 mice B16-F10 melanoma, lung | intravenous, 0.37 MBq, 2 h | 0.71 ± 0.19 %ID/g |
| O=C(NCC1OC2CCC=CCCC2O1)c1ccc([18F])nc1 (stereo not drawn) | – | female BALB/c nude mice, LS174T tumour, muscle | intravenous, 60 min, together with: CC49-tetrazine 24 h before | 0.6 ± 0.3 %ID/g |
| Cc1nc(N)nc2c1C(=O)N[C@@H](c1ccc(F)cc1-c1cccc(OCC[18F])n1)C2 | ex vivo biodistribution | C57BL/6 mice, brain | intravenous, 1 MBq, 30 min | 0.57 ± 0.02 %ID |
| O=C([O-])CN1CCN(CC(=O)[O-])CCN(CC(=O)NC[C@H]2CC[C@H](C(=O)N[C@H](Cc3cnc4ccccc4c3)C(=O)NCCCC[C@H](NC(=O)N[C@@H](CCC(=O)O)C(=O)O)C(=O)O)CC2)CCN(CC(=O)[O-])CC1.[64Cu+2] | ex vivo gamma counting | 22Rv1 tumour-bearing mice, spleen | intravenous, 0.74 MBq, 6 h post-injection | 6.3 %ID/g |
| N#C[C@@H]1CCCN1C(=O)CNC(=O)c1ccnc2ccc(OCCCN3CCN(C(=O)CCc4ccc5c(c4)CN4CCN6CC(=O)[O][68Ga-]([O]C(=O)C4)([O]5)[O]c4ccc(CCC(=O)N5CCN(CCCOc7ccc8nccc(C(=O)NCC(=O)N9CCC[C@H]9C#N)c8c7)CC5)cc4C6)CC3)cc12 | – | BALB/c nude mice, U-87 MG xenograft, lung | 2 h | 1.84 ± 0.48 %ID/g |
| COc1ccc2c(c1)C(C)(C)C(/C=C/C1=C(Oc3ccc(C(=O)NCCCCOc4cc(CN(Cc5ccccn5)Cc5ccccn5)cc(CN(Cc5ccccn5)Cc5ccccn5)c4)cc3)C(=C/C=C3/N(CCCCS(=O)(=O)[O-])c4ccc(OC)cc4C3(C)C)CCC1)=[N+]2CCCCS(=O)(=O)[O-].O=[N+]([O-])[O-].O=[N+]([O-])[O-].[99Tc+].[C-]#[O+].[C-]#[O+].[C-]#[O+].[Zn+2] | – | BALB/c mice, S. aureus myositis, gall bladder | 12 h post-injection | 55.3 %ID/g and 127 %ID/g and 19.6 %ID/g and 49.9 %ID/g |
| O=C(NCC1OC2CCC=CCCC2O1)c1ccc(COCCOCCOCC[18F])cc1 (stereo not drawn) | – | healthy female BALB/c nude mice, bladder | intravenous, 7.4 MBq per mouse, 60 min | 3.2 ± 0.8 %ID/g |
| N#C[C@@H]1CC(F)(F)CN1C(=O)CNC(=O)c1ccnc2c(NC(=O)[C@H](CCCCNC(=O)CCOCCOCCOCCOCCOCCOCCNC(=O)CN3CCN(CC(=O)[O-])CCN(CC(=O)[O-])CCN(CC(=O)[O-])CC3)NC(=O)CCCc3ccc(I)cc3)cccc12.[177Lu+3] | biodistribution | U-87 MG tumour-bearing mice, bone | 4 h | 3.69 ± 1.93 %ID/g |
| CC(C)c1noc(C2CCN(c3ncnc(Nc4ccc(OCC[18F])cc4)c3[N+](=O)[O-])CC2)n1 | ex vivo biodistribution after PET | C57BL/J male mice, brain | 60 min | 0.21 ± 0.06 %ID/g |
| CC(=O)N([O-])CCCCCNC(=O)CCC(=O)N([O-])CCCCCNC(=O)CCC(=O)N([O-])CCCCCN.[89Zr+4] | gamma counting | healthy Balb/c mice, adrenal | intravenous, 24 h, 89Zr-labelled complex | 0.08 ± 0.01 %ID/g |
| CC[C@H](C)[C@H](NC(=O)C[C@H](NC(=O)CN1CCN2CCN(CC1)CC(=O)[O][Al]([18F])[O]C(=O)C2)C(=O)O)C(=O)N[C@H]1CCc2cccc3c2N(C1=O)[C@H](C(=O)NCc1cn[nH]n1)C3 | – | C57BL/6J mice, MC-38 tumour, anti-PD-1 treated, stomach | 0.5 h | 1.53 ± 0.6 %ID/g |
| N[C@H](CSC(F)(F)[18F])C(=O)O | – | Kunming mice, turpentine inflammation, brain | intravenous, 0.74 MBq, 60 min | 0.91 ± 0.08 %ID/g |
| CCCC[C@H](NC(=O)CNC(=O)CNC(=O)[C@H](CCCCNC(=O)[C@H](CC(=O)O)NC(=O)C(C)c1ccc(CC(C)C)cc1)NC(=O)CN1CCN(CC(=O)O)CCN(CC(=O)O)CCN(CC(=O)O)CC1)C(=O)N[C@H]1CC(=O)NCCCC[C@@H](C(N)=O)NC(=O)[C@H](Cc2c[nH]c3ccccc23)NC(=O)[C@H](CCCNC(=N)N)NC(=O)[C@@H](Cc2ccccc2)NC(=O)[C@H](Cc2c[nH]cn2)NC1=O (stereo partly drawn) [lutetium-177 labelled] | – | C57 mice, tumour-bearing, brain | intravenous, 0.037 MBq, 24 h | 0.05 ± 0.03 %ID/g |

For quick reference, copied from above:
| Compound | test | system | conditions | tissue uptake |
| --- | --- | --- | --- | --- |
| CC(C)C[C@H](NC(=O)[C@@H](CCCCNC(=O)[C@@H](Cc1ccccc1)NC(=O)CCCCCCCNC(=O)CN1CCN(CC(=O)O)CCN(CC(=O)O)CCN(CC(=O)O)CC1)NC(=O)[C@H](Cc1ccc(O)cc1)NC(=O)[C@H](CO)NC(=O)[C@H](Cc1c[nH]c2ccccc12)NC(=O)[C@H](Cc1c[nH]cn1)NC(=O)[C@@H]1CCC(=O)N1)C(=O)N[C@@H](CCCNC(=N)N)C(=O)N1CCC[C@H]1C(=O)NCC(N)=O [indium-111 labelled] | – | male athymic nude mice, DU-145 prostate cancer xenograft, kidney | intravenous, 0.037 MBq, 1 h | 7.62 ± 0.83 %ID/g |
